Experimental data of several laboratories.
Each numbered part is a random draw from the data of one study; scales do not carry over between parts. Values joined by “and” are separate records of one study, mostly repeats; a detail may differ.
Sequence of UniProt Q13873 (whole entry, looked up): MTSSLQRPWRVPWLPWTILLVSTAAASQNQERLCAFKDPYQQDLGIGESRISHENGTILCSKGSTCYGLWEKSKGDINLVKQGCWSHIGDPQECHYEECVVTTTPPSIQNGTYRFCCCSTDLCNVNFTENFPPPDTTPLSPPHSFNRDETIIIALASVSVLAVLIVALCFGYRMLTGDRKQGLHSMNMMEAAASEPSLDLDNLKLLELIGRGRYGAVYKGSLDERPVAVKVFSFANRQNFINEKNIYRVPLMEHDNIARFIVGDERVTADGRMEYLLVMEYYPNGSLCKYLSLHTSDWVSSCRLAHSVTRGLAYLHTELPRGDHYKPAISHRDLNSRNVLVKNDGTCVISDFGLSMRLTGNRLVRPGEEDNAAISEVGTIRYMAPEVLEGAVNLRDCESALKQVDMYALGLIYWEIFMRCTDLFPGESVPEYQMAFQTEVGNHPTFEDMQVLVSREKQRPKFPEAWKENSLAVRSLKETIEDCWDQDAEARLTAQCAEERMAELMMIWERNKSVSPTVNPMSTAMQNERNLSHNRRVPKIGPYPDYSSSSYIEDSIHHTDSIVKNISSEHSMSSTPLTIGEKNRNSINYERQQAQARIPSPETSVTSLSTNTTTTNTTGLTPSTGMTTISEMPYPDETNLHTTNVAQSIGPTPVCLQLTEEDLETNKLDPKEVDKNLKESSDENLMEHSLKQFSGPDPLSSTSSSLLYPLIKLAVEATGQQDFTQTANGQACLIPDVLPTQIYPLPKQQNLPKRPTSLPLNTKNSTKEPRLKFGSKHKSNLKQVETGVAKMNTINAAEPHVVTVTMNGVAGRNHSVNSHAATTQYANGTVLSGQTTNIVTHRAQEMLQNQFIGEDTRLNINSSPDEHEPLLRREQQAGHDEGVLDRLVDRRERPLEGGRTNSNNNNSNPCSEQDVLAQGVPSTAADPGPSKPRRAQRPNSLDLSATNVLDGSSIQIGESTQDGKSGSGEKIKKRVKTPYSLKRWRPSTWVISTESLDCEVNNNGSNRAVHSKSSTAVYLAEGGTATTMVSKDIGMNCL
Sequence of UniProt Q9NSY1 (whole entry, looked up): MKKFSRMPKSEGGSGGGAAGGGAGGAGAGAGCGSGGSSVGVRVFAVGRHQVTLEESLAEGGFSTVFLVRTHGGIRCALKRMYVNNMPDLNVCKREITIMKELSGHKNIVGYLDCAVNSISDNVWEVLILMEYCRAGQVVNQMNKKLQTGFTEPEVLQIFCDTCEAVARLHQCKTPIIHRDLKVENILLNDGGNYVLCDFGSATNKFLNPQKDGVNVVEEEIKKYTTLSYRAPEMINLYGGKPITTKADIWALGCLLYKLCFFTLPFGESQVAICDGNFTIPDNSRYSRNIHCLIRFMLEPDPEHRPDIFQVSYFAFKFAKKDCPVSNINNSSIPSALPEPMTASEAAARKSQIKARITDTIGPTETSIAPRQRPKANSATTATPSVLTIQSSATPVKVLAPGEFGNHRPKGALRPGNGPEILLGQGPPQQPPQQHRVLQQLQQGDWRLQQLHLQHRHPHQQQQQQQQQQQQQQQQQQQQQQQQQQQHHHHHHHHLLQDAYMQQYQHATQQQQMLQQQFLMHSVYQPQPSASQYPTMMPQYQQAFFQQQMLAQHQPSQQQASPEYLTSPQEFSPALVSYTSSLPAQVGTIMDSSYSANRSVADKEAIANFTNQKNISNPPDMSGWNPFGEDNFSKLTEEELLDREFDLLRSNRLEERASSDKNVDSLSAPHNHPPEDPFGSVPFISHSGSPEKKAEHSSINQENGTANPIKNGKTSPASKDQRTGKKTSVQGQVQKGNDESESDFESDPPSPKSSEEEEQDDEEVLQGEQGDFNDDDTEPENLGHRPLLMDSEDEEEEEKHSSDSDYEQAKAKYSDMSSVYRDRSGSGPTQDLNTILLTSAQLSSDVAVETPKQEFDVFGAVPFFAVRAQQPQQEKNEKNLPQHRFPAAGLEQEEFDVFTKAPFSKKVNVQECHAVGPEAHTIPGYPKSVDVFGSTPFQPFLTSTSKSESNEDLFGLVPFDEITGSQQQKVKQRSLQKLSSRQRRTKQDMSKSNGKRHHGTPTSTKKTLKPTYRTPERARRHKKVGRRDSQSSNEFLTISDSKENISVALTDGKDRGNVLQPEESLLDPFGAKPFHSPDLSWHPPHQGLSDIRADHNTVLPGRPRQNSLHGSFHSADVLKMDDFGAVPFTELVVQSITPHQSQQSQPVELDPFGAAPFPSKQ
Sequence of UniProt Q7KZI7 (whole entry, looked up): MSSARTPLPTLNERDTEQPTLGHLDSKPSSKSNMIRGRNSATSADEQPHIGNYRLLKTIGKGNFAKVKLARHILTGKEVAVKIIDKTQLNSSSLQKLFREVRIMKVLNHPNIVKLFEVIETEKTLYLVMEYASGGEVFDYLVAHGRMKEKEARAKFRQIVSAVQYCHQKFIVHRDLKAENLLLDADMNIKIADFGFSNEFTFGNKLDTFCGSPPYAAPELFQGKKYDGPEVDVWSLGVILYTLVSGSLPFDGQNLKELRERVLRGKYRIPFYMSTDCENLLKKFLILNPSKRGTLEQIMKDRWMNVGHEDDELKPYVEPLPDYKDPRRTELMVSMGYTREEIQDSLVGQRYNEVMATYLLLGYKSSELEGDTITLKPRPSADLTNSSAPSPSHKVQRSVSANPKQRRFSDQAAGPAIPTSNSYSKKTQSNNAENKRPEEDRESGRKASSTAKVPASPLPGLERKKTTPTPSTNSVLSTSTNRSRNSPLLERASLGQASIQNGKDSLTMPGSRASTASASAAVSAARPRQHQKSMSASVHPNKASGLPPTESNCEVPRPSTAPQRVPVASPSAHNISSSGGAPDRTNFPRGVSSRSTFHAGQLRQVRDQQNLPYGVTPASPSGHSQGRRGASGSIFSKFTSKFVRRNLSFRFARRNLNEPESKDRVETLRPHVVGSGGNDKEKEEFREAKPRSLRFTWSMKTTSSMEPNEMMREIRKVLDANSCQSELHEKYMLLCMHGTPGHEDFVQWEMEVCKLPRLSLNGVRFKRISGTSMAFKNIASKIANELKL
Sequence of UniProt Q92918 (whole entry, looked up): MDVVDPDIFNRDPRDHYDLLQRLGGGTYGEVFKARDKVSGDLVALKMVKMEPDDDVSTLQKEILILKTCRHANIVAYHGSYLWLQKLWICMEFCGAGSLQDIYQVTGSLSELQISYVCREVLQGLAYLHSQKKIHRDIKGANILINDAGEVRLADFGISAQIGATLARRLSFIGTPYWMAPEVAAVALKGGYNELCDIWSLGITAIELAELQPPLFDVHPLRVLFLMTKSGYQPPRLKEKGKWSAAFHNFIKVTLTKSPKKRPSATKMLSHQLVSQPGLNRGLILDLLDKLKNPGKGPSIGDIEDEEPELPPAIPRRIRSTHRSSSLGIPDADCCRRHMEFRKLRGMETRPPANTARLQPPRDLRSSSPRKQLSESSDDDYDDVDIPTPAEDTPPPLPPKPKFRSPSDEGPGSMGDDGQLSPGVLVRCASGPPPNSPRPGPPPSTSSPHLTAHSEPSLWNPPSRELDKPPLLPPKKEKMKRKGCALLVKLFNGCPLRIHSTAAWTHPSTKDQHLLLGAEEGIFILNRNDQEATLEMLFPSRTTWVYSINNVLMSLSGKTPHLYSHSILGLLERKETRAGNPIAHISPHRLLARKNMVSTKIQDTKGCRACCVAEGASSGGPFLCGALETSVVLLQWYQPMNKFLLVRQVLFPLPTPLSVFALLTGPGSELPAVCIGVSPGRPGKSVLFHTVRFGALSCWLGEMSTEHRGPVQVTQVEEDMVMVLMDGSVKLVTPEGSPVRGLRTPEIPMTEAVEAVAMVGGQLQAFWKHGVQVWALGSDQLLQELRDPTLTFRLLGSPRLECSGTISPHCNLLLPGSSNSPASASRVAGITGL
Sequence of UniProt O75676 (whole entry, looked up): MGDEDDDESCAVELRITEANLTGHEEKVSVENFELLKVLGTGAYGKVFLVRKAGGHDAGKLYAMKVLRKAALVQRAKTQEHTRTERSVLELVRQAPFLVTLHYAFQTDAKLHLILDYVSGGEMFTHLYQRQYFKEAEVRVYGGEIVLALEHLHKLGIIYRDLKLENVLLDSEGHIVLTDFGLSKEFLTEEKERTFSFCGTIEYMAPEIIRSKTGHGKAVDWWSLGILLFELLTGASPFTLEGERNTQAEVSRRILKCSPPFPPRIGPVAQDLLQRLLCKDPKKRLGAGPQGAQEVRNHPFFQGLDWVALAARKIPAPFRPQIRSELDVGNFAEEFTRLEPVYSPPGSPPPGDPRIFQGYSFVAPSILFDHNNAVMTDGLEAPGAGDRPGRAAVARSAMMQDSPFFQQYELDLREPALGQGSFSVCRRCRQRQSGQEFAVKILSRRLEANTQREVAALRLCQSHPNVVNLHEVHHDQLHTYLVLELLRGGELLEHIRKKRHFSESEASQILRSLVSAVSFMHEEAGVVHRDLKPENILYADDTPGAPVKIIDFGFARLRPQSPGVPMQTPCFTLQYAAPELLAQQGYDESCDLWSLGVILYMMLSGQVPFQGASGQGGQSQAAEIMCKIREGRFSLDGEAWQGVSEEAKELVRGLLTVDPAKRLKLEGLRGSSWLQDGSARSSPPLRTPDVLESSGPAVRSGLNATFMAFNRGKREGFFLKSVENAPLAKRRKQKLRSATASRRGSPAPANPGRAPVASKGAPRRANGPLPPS
Sequence of UniProt Q16566 (whole entry, looked up): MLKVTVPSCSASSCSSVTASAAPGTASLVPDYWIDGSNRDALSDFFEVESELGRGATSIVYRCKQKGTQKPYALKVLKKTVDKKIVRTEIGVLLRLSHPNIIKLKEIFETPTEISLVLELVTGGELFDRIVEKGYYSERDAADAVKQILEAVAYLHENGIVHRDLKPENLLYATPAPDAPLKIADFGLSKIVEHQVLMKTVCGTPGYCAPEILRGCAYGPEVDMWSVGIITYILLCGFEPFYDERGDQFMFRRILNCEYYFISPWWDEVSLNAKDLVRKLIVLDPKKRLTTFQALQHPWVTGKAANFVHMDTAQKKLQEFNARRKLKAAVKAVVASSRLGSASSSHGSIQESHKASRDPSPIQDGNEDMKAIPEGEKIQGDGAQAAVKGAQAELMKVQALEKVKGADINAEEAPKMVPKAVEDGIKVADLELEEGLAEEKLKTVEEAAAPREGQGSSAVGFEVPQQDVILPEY

Study 1 — read-out: acetyl-histone H4 peptide binding; method: AlphaScreen displacement; tested at: 50 µM
Target: Bromodomain-containing protein 4, BD1 (BRD4, Homo sapiens, UniProt O60885)
| SMILES | inhibition [%] |
| --- | --- |
| COc1ccc(-c2csc3nc[nH]c(=O)c23)cc1 | 11.8 |
| COc1ccc(Nc2nc(N)c(C(=O)c3ccc(OC)cc3)s2)cc1 | 69 |
| Brc1c(Br)c(Br)c2[nH]nnc2c1Br | 6.9 |
| Cc1cc(C(=O)C(C#N)=Cc2ccncc2)c(C)n1-c1ccccc1F | 38.9 |
| Cc1ccc(NC2=CC(=O)c3sc(C)nc3C2=O)cc1 | 81.3 |
| CC(C)CNc1nccn2c(-c3cccnc3)cnc12 | 10.3 |

Study 2 — Compound: O=C(Nc1ccccc1)Nc1cccc(Oc2ccc3nccn3n2)c1; tested at: 1 µM
| target | method | measured | notes | relative to | remaining binding |
| --- | --- | --- | --- | --- | --- |
| MAP3K20 (Homo sapiens, UniProt Q9NYL2) | competitive binding panel | ZAK |  | vehicle | 65% |
| BMP2K (Homo sapiens, UniProt Q9NSY1) | competitive binding |  | BIKE |  | 100% |
| MAP4K1 (Homo sapiens, UniProt Q92918) | competitive binding panel | HPK1 |  | vehicle | 67% |
| Myosin-IIIa (MYO3A, Homo sapiens, UniProt Q8NEV4) | competitive binding panel |  |  | vehicle | 100% |
| EPHA4 (Homo sapiens, UniProt P54764) | competitive binding panel |  |  | vehicle | 100% |
| CSF1R (Homo sapiens, UniProt P07333) | competitive binding scan |  | autoinhibited form |  | 100% |
| BMPR2 (Homo sapiens, UniProt Q13873) | competitive binding panel |  |  | vehicle | 100% |
| MAP2K3 (Homo sapiens, UniProt P46734) | competitive binding panel | MEK3 |  | vehicle | 100% |

Study 3 — read-out: enzyme activity; mode: inhibitor; tested at: 0.5 µM; relative to: control
SMILES: Cc1cncc2cccc(S(=O)(=O)N3CCCN(C(=O)CN)C[C@@H]3C)c12
| target | remaining activity |
| --- | --- |
| RPS6KA4 (Homo sapiens, UniProt O75676) | 82.3% |
| GRK4 (Homo sapiens, UniProt P32298) | 94% |
| MARK4 (Homo sapiens, UniProt Q96L34) | 95.7% |
| CLK3 (Homo sapiens, UniProt P49761) | 95.9% |
| CAMK4 (Homo sapiens, UniProt Q16566) | 90.6% |
| TXK (Homo sapiens, UniProt P42681) | 103% |
| DDR2 (Homo sapiens, UniProt Q16832) | 103% |
| MARK2 (Homo sapiens, UniProt Q7KZI7) | 89.1% |
| MAPK1 (Homo sapiens, UniProt P28482) | 103% |
| PLK3 (Homo sapiens, UniProt Q9H4B4) | 98.4% |
| KDR (Homo sapiens, UniProt P35968) | 99% |
| DCLK2 (Homo sapiens, UniProt Q8N568) | 89% |
| MET (Homo sapiens, UniProt P08581) | 104% |
| PNCK (Homo sapiens, UniProt Q6P2M8) | 101% |
| Cyclin-dependent kinase 9, with cyclin K (CDK9, Homo sapiens, UniProt P50750) | 103% |

Mixed results
| SMILES | target or system | assay | conditions | endpoint | result |
| --- | --- | --- | --- | --- | --- |
| Cn1cncc1[C@@](O)(COc1ccc(C#N)cc1-c1ccc(OC(F)(F)F)cc1)c1ccc(C#N)cc1 | HEK293T | high-content imaging | 10 µM, 12 h | cells with healthy nuclei | 65.8% and 36.4% |
| COc1ccc2c(c1)O[C@H](c1ccc(OC)c(OC)c1)C[C@@H]2NC(=O)C1(c2ccc3c(c2)OC(F)(F)O3)CC1 (single isomer, unassigned) | TMEM97 (Homo sapiens, UniProt Q5BJF2) | binding | off-target scan | Ki | 1.19 µM |

Repeated from above (study 3):
| target | remaining activity |
| --- | --- |
| KDR (Homo sapiens, UniProt P35968) | 99% |
| MET (Homo sapiens, UniProt P08581) | 104% |
| TXK (Homo sapiens, UniProt P42681) | 103% |
| Cyclin-dependent kinase 9, with cyclin K (CDK9, Homo sapiens, UniProt P50750) | 103% |
| CLK3 (Homo sapiens, UniProt P49761) | 95.9% |
